Assay results gathered from unrelated publications.
A part holds a random share of what one study measured.

Block 1 — read-out: cell-free assay; method: competition with immobilised ligand; tested at: 1 µM
Target: Calcium-dependent protein kinase 1 (CDPK1, Plasmodium falciparum, UniProt P62344)
Chain of UniProt P62344 (whole entry, looked up): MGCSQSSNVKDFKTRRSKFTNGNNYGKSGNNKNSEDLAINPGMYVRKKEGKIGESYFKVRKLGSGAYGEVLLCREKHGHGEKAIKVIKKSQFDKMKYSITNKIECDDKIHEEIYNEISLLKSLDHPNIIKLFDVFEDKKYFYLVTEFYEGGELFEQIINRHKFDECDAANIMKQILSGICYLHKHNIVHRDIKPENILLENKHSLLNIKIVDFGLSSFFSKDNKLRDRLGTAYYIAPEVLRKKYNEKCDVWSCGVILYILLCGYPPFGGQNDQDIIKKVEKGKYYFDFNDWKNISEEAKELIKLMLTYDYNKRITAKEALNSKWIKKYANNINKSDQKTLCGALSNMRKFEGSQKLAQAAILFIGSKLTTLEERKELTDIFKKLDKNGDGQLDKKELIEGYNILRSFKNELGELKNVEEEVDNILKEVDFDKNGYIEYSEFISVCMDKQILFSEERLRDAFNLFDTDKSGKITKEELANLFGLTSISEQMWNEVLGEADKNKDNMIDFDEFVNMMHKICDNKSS
Compound	remaining binding
CCOCCn1cc(C(=O)Nc2ccc(-n3nc(-c4cccnc4)cc3C(F)(F)F)cn2)ccc1=O	71%
CC1=C(C#N)[C@@H](c2ccc3[nH]nc(C)c3c2)C(C#N)=C(c2ccc(Cl)cc2)N1	100%
CO[C@@H](C)c1c(Nc2ccc([C@H](N(C)C(=O)C3CCS(=O)(=O)CC3)C(F)(F)F)cc2)cnc2cc(Cl)nn12	97%

Block 2 — mode: inhibitor; tested at: 10 µM; reference: control
Target: Diamine acetyltransferase 1 (Homo sapiens, UniProt P21673)
Target sequence (P21673 1-171): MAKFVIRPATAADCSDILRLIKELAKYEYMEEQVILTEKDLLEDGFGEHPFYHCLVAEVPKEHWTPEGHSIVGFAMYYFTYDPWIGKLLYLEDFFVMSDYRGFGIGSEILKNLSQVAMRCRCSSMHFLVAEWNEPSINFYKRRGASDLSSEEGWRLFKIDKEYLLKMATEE
Structure (SMILES)	remaining activity
CCCCC/C=C/C/C=C/CCCCCCCC(=O)O[C@H](COC(=O)CCCCCCCCCCCCCCC)COP(=O)([O-])OCC[N+](C)(C)C	85.8%
C[C@@H]1C(=O)O[C@H]2[C@H](O)[C@]34[C@@H]5OC(=O)[C@]3(O[C@@H]3OC(=O)[C@H](O)[C@@]34[C@H](C(C)(C)C)[C@H]5O)[C@@]12O	75.2%
CO[C@H]1C[C@H](O[C@H]2CC[C@]3(C)[C@H]4CC[C@]5(C)[C@@H](C6=CC(=O)OC6)CC[C@]5(O)[C@@H]4CC[C@]3(O)C2)O[C@H](C)[C@H]1O[C@@H]1O[C@H](CO)[C@@H](O)[C@H](O)[C@H]1O	95.4%
c1ccc2c(c1)sc1ccccc12	93.5%
C=CCc1ccc(OC)cc1	99.3%
C[C@H](O)CCO	93.9%

Block 3 — read-out: enzyme activity; mode: inhibitor; tested at: 10 µM
Target: Calcium/calmodulin-dependent protein kinase type II subunit alpha (CAMK2A, Homo sapiens, UniProt Q9UQM7)
Chain of UniProt Q9UQM7 (whole entry, looked up): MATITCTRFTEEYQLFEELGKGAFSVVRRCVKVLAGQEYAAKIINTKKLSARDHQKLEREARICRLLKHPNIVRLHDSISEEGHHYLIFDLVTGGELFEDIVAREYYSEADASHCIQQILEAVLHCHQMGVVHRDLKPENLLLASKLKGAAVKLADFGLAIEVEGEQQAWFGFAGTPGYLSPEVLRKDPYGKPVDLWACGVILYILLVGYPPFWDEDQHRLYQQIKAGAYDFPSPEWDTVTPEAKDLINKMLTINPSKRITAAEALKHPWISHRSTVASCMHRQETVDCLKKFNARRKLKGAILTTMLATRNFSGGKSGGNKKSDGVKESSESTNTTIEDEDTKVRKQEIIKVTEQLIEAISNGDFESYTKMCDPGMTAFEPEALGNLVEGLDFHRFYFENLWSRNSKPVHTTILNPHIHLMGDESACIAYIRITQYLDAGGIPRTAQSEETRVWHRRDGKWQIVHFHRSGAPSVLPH
SMILES	inhibition [%]
C[C@]12CC[C@H](O)C[C@H]1CC[C@@H]1[C@@H]2[C@H](O)C(=O)[C@]2(C)[C@@H](c3ccc(=O)oc3)CC[C@]12O	-4
CN1C[C@@H]2C[C@H](C1)c1cccc(=O)n1C2	-13
COc1ccc2c(c1OC)CN1CCc3cc4c(cc3C1C2)OCO4 (centres unmarked)	5
O=C(O)CCCCCCCCCO	-20
CC(=O)O[C@H]1C[C@H](O[C@H]2[C@@H](O)C[C@H](O[C@H]3[C@@H](O)C[C@H](O[C@H]4CC[C@@]5(C)[C@H](CC[C@@H]6[C@@H]5C[C@@H](O)[C@]5(C)[C@@H](C7=CC(=O)OC7)CC[C@]65O)C4)O[C@@H]3C)O[C@@H]2C)O[C@H](C)[C@H]1O[C@@H]1O[C@H](CO)[C@@H](O)[C@H](O)[C@H]1O	-4
COc1c(C(C)C)cc2c(c1O)[C@@]1(C(=O)O)CCCC(C)(C)[C@@H]1CC2	-23
COc1cc(C(=O)O[C@H]2[C@@H]3C=CO[C@@H](O[C@@H]4O[C@H](CO)[C@@H](O)[C@H](O)[C@H]4O)[C@@H]3[C@@]3(CO)O[C@@H]23)ccc1O	25

Block 4 — cell line: HEK-293T/ACE2; method: Hoechst nuclei count; tested at: concentration not given; time: 16 (unit not given); reference: vehicle
Structure (SMILES)	viability [%]
COc1cc([C@@H]2c3cc4c(cc3[C@@H](O[C@@H]3O[C@@H]5CO[C@@H](C)O[C@H]5[C@H](O)[C@H]3O)[C@H]3COC(=O)[C@H]23)OCO4)cc(OC)c1O	80.1
C=C1CC[C@@]2(O)[C@H]3Cc4ccc(O)c5c4[C@@]2(CCN3CC2CC2)[C@H]1O5	99.6
CCN(CC)C(=O)[C@@]1(c2ccccc2)C[C@H]1CN	104
Nc1nc(NC2CC2)c2ncn([C@H]3C=C[C@@H](CO)C3)c2n1	100
O=C1Nc2ccc(Cl)cc2[C@@](C#CC2CC2)(C(F)(F)F)O1	96
Nc1cccc2c1C(=O)N(C1CCC(=O)NC1=O)C2=O (centres unmarked)	103
CCCCN1CCCC[C@H]1C(=O)Nc1c(C)cccc1C	102

Repeated from above (block 4):
Structure (SMILES)	viability [%]
C=C1CC[C@@]2(O)[C@H]3Cc4ccc(O)c5c4[C@@]2(CCN3CC2CC2)[C@H]1O5	99.6
CCN(CC)C(=O)[C@@]1(c2ccccc2)C[C@H]1CN	104
Nc1cccc2c1C(=O)N(C1CCC(=O)NC1=O)C2=O (centres unmarked)	103
